Results collected from several papers.
A part holds a random share of what one study measured. Numbers after ± are the reported error.
UniProt Q14164, sequence (whole entry, looked up): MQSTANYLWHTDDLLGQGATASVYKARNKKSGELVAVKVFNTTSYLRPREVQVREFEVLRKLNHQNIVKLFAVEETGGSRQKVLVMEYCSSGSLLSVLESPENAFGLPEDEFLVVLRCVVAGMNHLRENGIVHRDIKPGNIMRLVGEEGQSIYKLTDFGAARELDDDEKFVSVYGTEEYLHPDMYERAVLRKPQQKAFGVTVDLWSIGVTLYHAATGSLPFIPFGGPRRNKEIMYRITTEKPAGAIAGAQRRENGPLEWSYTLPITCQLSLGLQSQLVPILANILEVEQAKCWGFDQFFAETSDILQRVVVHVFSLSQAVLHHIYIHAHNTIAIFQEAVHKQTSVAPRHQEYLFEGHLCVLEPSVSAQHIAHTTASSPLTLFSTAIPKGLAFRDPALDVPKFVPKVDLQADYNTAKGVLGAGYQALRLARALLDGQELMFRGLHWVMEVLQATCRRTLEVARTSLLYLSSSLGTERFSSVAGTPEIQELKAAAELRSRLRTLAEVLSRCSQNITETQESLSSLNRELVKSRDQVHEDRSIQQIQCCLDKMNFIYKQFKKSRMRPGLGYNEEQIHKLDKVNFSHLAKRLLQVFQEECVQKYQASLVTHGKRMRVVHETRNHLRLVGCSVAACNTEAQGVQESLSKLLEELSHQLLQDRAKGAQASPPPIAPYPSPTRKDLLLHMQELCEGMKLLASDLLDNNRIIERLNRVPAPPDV
UniProt Q9BUB5, sequence (whole entry, looked up): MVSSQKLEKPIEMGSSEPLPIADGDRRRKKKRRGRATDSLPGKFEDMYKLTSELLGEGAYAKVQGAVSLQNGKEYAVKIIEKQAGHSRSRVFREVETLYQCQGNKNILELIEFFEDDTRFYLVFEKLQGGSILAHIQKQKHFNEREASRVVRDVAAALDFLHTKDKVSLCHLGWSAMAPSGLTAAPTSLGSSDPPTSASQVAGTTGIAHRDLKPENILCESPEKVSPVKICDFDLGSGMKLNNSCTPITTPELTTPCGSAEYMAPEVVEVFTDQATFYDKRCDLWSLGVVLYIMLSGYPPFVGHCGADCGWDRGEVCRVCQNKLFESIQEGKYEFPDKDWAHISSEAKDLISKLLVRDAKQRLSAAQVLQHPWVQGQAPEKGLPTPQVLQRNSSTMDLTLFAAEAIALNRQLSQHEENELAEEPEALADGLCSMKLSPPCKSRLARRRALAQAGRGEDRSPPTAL
UniProt Q13153, sequence (whole entry, looked up): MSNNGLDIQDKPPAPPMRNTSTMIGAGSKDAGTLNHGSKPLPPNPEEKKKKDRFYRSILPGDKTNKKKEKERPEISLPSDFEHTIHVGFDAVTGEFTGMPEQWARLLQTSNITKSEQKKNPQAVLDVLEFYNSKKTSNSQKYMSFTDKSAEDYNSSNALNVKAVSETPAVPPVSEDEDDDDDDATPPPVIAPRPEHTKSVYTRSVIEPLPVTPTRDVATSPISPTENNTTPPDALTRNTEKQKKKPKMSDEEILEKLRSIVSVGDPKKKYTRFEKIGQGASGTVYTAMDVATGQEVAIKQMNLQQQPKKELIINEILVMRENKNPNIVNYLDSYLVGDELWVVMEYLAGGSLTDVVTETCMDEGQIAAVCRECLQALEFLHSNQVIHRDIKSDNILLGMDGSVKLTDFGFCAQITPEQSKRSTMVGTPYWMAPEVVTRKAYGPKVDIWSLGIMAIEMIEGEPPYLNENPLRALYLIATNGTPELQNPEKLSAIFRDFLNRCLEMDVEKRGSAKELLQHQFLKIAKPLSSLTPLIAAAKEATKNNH
UniProt Q92772, sequence (whole entry, looked up): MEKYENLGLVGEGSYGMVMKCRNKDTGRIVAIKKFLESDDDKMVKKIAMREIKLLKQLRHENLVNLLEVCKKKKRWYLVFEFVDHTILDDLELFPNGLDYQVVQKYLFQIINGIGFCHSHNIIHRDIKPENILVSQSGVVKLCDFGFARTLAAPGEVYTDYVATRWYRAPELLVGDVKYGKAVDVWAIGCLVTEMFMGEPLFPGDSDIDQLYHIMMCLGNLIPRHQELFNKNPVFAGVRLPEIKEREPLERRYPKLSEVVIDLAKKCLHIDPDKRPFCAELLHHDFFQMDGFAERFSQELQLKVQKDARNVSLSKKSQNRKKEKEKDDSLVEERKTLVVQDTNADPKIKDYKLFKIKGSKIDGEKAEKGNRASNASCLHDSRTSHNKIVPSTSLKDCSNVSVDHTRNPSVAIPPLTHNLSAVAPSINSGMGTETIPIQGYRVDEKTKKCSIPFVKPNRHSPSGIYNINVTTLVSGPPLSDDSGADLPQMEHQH
UniProt P17948, sequence (whole entry, looked up): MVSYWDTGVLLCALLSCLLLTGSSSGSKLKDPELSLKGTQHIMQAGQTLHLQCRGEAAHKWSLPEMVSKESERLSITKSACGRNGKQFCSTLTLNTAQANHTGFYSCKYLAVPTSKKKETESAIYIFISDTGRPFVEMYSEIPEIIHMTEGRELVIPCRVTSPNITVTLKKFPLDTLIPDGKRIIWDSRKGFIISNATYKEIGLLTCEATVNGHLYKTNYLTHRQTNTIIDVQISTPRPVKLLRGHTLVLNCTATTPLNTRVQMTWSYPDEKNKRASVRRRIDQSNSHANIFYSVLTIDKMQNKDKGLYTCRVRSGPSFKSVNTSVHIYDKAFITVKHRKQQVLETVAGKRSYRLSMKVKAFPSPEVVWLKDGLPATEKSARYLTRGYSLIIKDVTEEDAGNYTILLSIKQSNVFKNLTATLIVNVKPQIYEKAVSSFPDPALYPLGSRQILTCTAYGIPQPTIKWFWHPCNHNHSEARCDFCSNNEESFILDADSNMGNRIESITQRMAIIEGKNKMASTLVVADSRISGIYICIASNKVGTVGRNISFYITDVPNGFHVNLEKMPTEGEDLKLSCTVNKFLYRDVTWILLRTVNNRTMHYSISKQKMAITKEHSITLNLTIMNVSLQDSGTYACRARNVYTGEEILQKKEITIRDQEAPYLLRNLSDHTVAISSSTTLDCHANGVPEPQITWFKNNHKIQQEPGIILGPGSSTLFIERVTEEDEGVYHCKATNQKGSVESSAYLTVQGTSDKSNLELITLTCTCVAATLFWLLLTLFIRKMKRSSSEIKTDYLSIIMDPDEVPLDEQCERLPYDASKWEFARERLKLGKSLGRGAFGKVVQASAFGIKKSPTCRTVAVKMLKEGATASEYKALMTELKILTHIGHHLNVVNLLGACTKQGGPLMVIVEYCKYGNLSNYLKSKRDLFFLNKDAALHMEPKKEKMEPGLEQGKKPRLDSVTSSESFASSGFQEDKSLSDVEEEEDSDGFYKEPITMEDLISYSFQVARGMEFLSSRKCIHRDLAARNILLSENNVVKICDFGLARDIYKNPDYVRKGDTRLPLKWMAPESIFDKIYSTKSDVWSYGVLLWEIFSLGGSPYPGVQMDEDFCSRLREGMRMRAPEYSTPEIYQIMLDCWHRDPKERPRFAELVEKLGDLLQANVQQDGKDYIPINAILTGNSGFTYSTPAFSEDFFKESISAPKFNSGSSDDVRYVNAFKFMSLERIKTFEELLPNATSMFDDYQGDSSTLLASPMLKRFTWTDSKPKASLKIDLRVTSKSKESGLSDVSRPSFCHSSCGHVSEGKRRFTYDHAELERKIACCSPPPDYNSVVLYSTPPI
UniProt Q86Y07, sequence (whole entry, looked up): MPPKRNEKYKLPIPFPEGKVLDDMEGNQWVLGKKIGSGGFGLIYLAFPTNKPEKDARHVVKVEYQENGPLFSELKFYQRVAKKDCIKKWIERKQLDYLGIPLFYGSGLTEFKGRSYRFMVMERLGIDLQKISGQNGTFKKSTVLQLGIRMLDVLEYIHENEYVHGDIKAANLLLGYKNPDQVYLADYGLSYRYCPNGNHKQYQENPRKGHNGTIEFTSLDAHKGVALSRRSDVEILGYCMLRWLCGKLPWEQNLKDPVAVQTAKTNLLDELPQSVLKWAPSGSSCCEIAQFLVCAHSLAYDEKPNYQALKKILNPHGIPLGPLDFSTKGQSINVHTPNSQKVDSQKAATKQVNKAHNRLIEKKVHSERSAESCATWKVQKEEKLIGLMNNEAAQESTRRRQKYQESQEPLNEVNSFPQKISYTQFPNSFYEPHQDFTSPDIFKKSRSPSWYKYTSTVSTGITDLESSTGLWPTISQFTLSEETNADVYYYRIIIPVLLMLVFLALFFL

Set 1 — organism: Plasmodium berghei; mode: inhibitor; cells: Huh-7; strain: GFP-expressing sporozoites, liver stage; concentration: 10 µM; time: 24 h; reference: untreated control
NCC[C@H](O)C(=O)N[C@@H]1C[C@H](N)[C@@H](O[C@H]2O[C@H](CN)[C@@H](O)[C@H](O)[C@H]2O)[C@H](O)[C@H]1O[C@H]1O[C@H](CO)[C@@H](O)[C@H](N)[C@H]1O gave an infection rate of 104%.
For CC(=O)c1ccc2c(c1)N(CCCN(C)C)c1ccccc1S2, the infection rate was 102%.
CC1(C)[C@@H](OC(=O)CCC(=O)O)CC[C@]2(C)[C@H]3C(=O)C=C4[C@@H]5C[C@@](C)(C(=O)O)CC[C@]5(C)CC[C@@]4(C)[C@]3(C)CC[C@@H]12 has an infection rate of 121%.
NS(=O)(=O)c1cc2c(cc1Cl)NC(C1CC3C=CC1C3)NS2(=O)=O (stereo not shown) gave an infection rate of 98.1%.
The infection rate of Oc1ccc(Cl)c2cccnc12 is reported as 5.14%.
For COCCCOc1cc(C[C@@H](C[C@H](N)[C@@H](O)C[C@H](C(=O)NCC(C)(C)C(N)=O)C(C)C)C(C)C)ccc1OC, the infection rate was 89%.
For Cn1cnc([N+](=O)[O-])c1Sc1ncnc2[nH]cnc12, the infection rate was 76.7%.
CS(=O)(=O)OCCCCOS(C)(=O)=O has an infection rate of 106%.
For C[n+]1cc2c3c(ccc2c2ccc4cc5c(cc4c21)OCO5)OCO3, the infection rate was 1.22%.
For O=C(Nc1ccc([N+](=O)[O-])cc1Cl)c1cc(Cl)ccc1O, the infection rate was 1.8%.
CN(C)CCCO[C@@H]1[C@H]2OC(C)(C)O[C@H]2O[C@@H]1[C@H](O)CO has an infection rate of 109%.
C=C1CC[C@H](O)C/C1=C/C=C1\CCC[C@]2(C)[C@@H]([C@H](C)/C=C/[C@H](C)C(C)C)CC[C@@H]12 has an infection rate of 107%.
For CC=CC1=C(C(=O)O)N2C(=O)[C@@H](NC(=O)[C@H](N)c3ccc(O)cc3)[C@H]2SC1, the infection rate was 118%.
The infection rate of O=C(CNC(=O)c1ccc(Cl)cc1)NO is reported as 91.5%.
CCCNC(=O)NS(=O)(=O)c1ccc(Cl)cc1 has an infection rate of 111%.
The infection rate of C[C@H](CCC(=O)O)[C@H]1CC[C@H]2[C@@H]3C(=O)C[C@@H]4CC(=O)CC[C@]4(C)[C@H]3CC(=O)[C@]12C is reported as 107%.
NC(CO)C(=O)NNCc1ccc(O)c(O)c1O (stereo not shown) gave an infection rate of 83%.
The infection rate of CN(C)CCC=C1c2ccccc2CCc2ccccc21 is reported as 112%.
O=C(O)c1cc(-c2ccc(F)cc2F)ccc1O has an infection rate of 72.7%.
For CC(=O)NO, the infection rate was 89.7%.
NC(=O)NC1NC(=O)NC1=O (stereo not shown) gave an infection rate of 88.4%.
The infection rate of CCN(CC)C(=O)c1ccc(O)c(OC)c1 is reported as 89.9%.

Set 2 — observed: enzyme activity; mode: inhibitor; concentration: 0.5 µM; reference: control
Target: BDNF/NT-3 growth factors receptor (NTRK2, Homo sapiens, UniProt Q16620)
UniProt Q16620, sequence (whole entry, looked up): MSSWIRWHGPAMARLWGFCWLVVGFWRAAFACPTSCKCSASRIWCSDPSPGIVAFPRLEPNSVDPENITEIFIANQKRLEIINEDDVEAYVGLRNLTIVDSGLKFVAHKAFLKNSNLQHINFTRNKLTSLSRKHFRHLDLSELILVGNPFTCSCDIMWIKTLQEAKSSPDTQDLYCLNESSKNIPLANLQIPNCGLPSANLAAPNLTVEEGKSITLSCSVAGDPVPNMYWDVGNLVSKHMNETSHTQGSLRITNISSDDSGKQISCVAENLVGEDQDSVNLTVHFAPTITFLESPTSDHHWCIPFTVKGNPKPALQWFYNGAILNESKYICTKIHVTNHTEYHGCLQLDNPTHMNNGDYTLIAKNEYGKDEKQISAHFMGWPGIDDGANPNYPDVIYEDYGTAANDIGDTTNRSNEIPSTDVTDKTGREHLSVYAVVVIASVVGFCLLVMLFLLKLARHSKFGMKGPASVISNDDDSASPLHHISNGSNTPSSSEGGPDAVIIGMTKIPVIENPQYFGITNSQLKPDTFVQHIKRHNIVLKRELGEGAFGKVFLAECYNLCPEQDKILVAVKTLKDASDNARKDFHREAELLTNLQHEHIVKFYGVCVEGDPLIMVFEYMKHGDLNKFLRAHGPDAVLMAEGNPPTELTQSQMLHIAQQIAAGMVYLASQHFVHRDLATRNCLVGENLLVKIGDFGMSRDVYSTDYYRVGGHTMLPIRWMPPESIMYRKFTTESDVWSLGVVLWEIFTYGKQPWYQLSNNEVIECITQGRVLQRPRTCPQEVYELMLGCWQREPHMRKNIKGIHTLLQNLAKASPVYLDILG
For O=C1Cc2c([nH]c3ccc(Br)cc23)-c2ccccc2N1, the remaining activity was 95%.
For COc1ccc2c(c1)c(C1=C(c3c[nH]c4ccccc34)C(=O)NC1=O)cn2CCCN(C)C, the remaining activity was 88.1%.
With COc1ccc(COc2ccc(Cc3cnc(N)nc3N)cc2OC)cc1 the remaining activity was 31.2%.
The remaining activity of CCCCc1c(-c2ccc(OC)cc2)[nH]c2nccnc12 is reported as 73.4%.
The remaining activity of N#Cc1cnc2cnc(NCc3cccnc3)cc2c1Nc1ccc(F)c(Cl)c1 is reported as 101%.
For Cc1ccc(S(=O)(=O)/C=C/C#N)cc1, the remaining activity was 98.5%.
O=C1Nc2ccccc2/C1=C\c1c(Cl)[nH]c2ccccc12 has a remaining activity of 95%.
O=C1Nc2ccc(Br)cc2/C1=C/c1cc2c([nH]1)CCCC2 has a remaining activity of 43.6%.
The remaining activity of c1ccc(-c2n[nH]c3c2oc2ccccc23)cc1 is reported as 64%.
The remaining activity of CN(C)S(=O)(=O)c1ccc2c(c1)/C(=C/c1cc3c([nH]1)CCCC3)C(=O)N2 is reported as 15.6%.
COc1cccc(-c2cc(=O)c3ccccc3o2)c1N gave a remaining activity of 65.4%.
For O=C1NC(=O)c2c1c1c3ccccc3[nH]c1n1cncc21, the remaining activity was 49%.
The remaining activity of CN1CCN(c2ccc3nc(-c4c(N)c5c(F)cccc5[nH]c4=O)[nH]c3c2)CC1 is reported as 5.72%.
Cc1cc(Nc2cc(N3CCN(C)CC3)nc(Sc3ccc(NC(=O)C4CC4)cc3)n2)[nH]n1 gave a remaining activity of 26.9%.
The remaining activity of O=Nc1c(-c2c(O)[nH]c3cc(Br)ccc23)[nH]c2ccccc12 is reported as 10.3%.
With CCCNC(=O)Nc1ccc(Oc2ncnc3cc(OC)c(OC)cc23)cc1Cl the remaining activity was 102%.
c1ccc2c(-c3ccncc3)c[nH]c2c1 gave a remaining activity of 107%.
For O=c1cc(N2CCOCC2)oc2c(-c3ccccc3)cccc12, the remaining activity was 112%.
O=C(c1cc2cc(O)ccc2[nH]1)c1cc2cc(O)ccc2[nH]1 has a remaining activity of 37%.

Set 3 — species: human; sample: microsomes or S9; concentration: 2 µM; time: 0.5 h
For O=C(c1ccc(Cn2ccn3nc4c(c3c2=O)CCCC4)cc1)N1CCN(c2ncccn2)CC1, the remaining compound was 3.22%.
With O=C(C1CCCC1)N1CCn2c(nnc2-c2ccccc2)C1 the remaining compound was 88.6%.
Cn1ncc2c(-n3cc(Br)cn3)ncnc21 has a remaining compound of 72.1%.
CC(C)(C)C1CCc2c(sc(NC(=O)Cc3ccccc3)c2C#N)C1 (stereo not shown) has a remaining compound of 94.9%.
Cc1ccccc1NC(=O)CC(=O)NS(=O)(=O)c1ccc(Cl)cc1 gave a remaining compound of 56.6%.
With COc1ncnc(N)c1CNCCC1=CCOCC1 the remaining compound was 63.8%.
With COc1ccc(OCCc2c(O)nc(C)c(Br)c2O)cc1Br the remaining compound was 0.183%.
NC(=O)C1CN(c2cc(=O)n3ccccc3n2)CCN1 (stereo not shown) gave a remaining compound of 92.5%.
The remaining compound of c1ccc(-c2ncc(CNc3cccc(-c4nnc[nH]4)c3)s2)nc1 is reported as 83.8%.
O=C(CN1C(=O)CCC1=O)N1CC(S(=O)(=O)C2CCCCC2)C1 gave a remaining compound of 65.4%.
For O=C(O)CCc1nc2cc(-c3ccsc3)ccc2[nH]1, the remaining compound was 88.2%.
Cc1nc2ccc(N3CCN(c4ncc(C)s4)CC3)nn2n1 gave a remaining compound of 4.04%.
O=C(Nc1cccc2ccccc12)C1c2ccccc2Oc2ccccc21 has a remaining compound of 66.1%.
For Cc1nc2nc(Cl)n(Cc3ccc(-c4cc(CC(C)C)sc4S(=O)(=O)NC(C)(C)C)cc3)c2cc1-c1ccccc1, the remaining compound was 1.63%.
C[S+]([O-])c1nc(-c2cccs2)cc(-c2ccccc2)c1C#N (stereo not shown) gave a remaining compound of 3.06%.
For COc1ccccc1-n1c(=O)n(Cc2cccc(C)c2)c(=O)c2c(C)cc(C)nc21, the remaining compound was 0.98%.
With O=C1N[C@@H](Cc2c[nH]c3ccccc23)C(=O)N2CCC[C@@H]12 the remaining compound was 53%.
The remaining compound of Cc1nc(CC(C)C)cc(C(=O)N2C[C@@H](N(C)C)[C@H](C(C)C)C2)n1 is reported as 33.5%.
With CCc1nc2cc(-c3ccccn3)c(CO)nc2n1Cc1ccc2oc(-c3ccccc3-c3nnn[nH]3)c(Br)c2c1 the remaining compound was 82.8%.
CCS(=O)(=O)N1CC(=O)N(Cc2ccc(OC(C)C)cc2)C(C)(C(=O)NCc2ccccc2)C1 (stereo not shown) gave a remaining compound of 91.4%.
O=[N+]([O-])c1ccc(CNC2=NS(=O)(=O)c3cc(Cl)ccc32)cc1 has a remaining compound of greater than 99%.
With Cc1cc(C)nc(Nc2n[nH]c(COc3ccccc3)n2)n1 the remaining compound was 76.8%.
For CC(C)c1noc(-c2cccc(=O)n2CC(=O)N2CCN(c3ccc(F)cc3)CC2)n1, the remaining compound was 6.41%.
c1cc2ccn(-c3ccc4ccnc(N5CCOCC5)c4c3)c2cn1 gave a remaining compound of 0.723%.

Set 4 — technique: competition with immobilised ligand; concentration: 1 µM
SMILES: Cn1nc(C(F)(F)F)cc1-c1cnc(N2CCc3cc(S(=O)(=O)Nc4c(F)cc(Cl)cc4F)cc(N4CCCC4=O)c32)nc1
The remaining binding was 61% (VRK2 (Homo sapiens, UniProt Q86Y07); cell-free assay).
The remaining binding was 100% (FLT3 (Homo sapiens, UniProt P36888, D835Y); cell-free assay).
For FLT3 (Homo sapiens, UniProt P36888, K663Q); cell-free assay: remaining binding read 100%.
ROCK2 (Homo sapiens, UniProt O75116); cell-free assay — remaining binding: 85%.
For FER (Homo sapiens, UniProt P16591); cell-free assay: remaining binding read 100%.
MKNK1 (Homo sapiens, UniProt Q9BUB5); cell-free assay — remaining binding: 72%.
The remaining binding was 94% (ERBB4 (Homo sapiens, UniProt Q15303); cell-free assay).
PAK1 (Homo sapiens, UniProt Q13153); cell-free assay — remaining binding: 100%.
FLT3 (Homo sapiens, UniProt P36888, D835V); cell-free assay — remaining binding: 91%.
The remaining binding was 78% (PIK3C3 (Homo sapiens, UniProt Q8NEB9); cell-free assay).
The remaining binding was 95% (FLT1 (Homo sapiens, UniProt P17948); cell-free assay).
It gave 100% for remaining binding (Myosin-IIIa (MYO3A, Homo sapiens, UniProt Q8NEV4); binding).
The remaining binding was 94% (LTK (Homo sapiens, UniProt P29376); cell-free assay).
DSTYK (Homo sapiens, UniProt Q6XUX3); cell-free assay — remaining binding: 83%.
For IKBKE (Homo sapiens, UniProt Q14164); cell-free assay: remaining binding read 94%.
CDKL2 (Homo sapiens, UniProt Q92772); binding — remaining binding: 100%.

Set 5
Structure (SMILES): CC(C)n1cnc(-c2ccc(F)cc2)c1-c1ncc(C(=O)Nc2ccc(N3CCN(C)CC3)cc2)[nH]1
Phase 2a trial, item: blood pressure increased; human, idiopathic pulmonary fibrosis; 30 mg once daily, grade 5 — “patients with adverse event”: 0%.
The “patients with adverse event” was 0% (Phase 2a trial, item: blood creatinine increased; human, idiopathic pulmonary fibrosis; 30 mg once daily, grade 4).
For Phase 2a trial, item: hypertriglyceridaemia; human, idiopathic pulmonary fibrosis; 30 mg once daily, grade 2: “patients with adverse event” read 0%.
The “patients with adverse event” was 0% (Phase 2a trial, item: hyperuricaemia; human, idiopathic pulmonary fibrosis; all compound arms total, grade 4).
The “patients with adverse event” was 0% (Phase 2a trial, item: blood glucose increased; human, idiopathic pulmonary fibrosis; 60 mg once daily, grade 5).
For item: periorbital oedema, grade 2; idiopathic pulmonary fibrosis patients; oral, 30 mg once daily: “patients with adverse event” read 0%.
For Phase 2a trial, item: hypokalaemia; human, idiopathic pulmonary fibrosis; 60 mg once daily, grade 4: “patients with adverse event” read 0%.
The “patients with adverse event” was 0% (Phase 2a trial, item: hypercholesterolaemia; human, idiopathic pulmonary fibrosis; 60 mg once daily, grade 1).
It gave 0% for “patients with adverse event” (item: periorbital oedema, grade 3; idiopathic pulmonary fibrosis patients; oral, 60 mg once daily).
It gave 0% for “patients with adverse event” (Phase 2a trial, item: blood fibrinogen increased; human, idiopathic pulmonary fibrosis; 30 mg once daily, grade 3).
The “patients with adverse event” was 0% (Phase 2a trial, item: hepatobiliary disorders; human, idiopathic pulmonary fibrosis; 60 mg once daily, grade 4).
For Phase 2a trial, item: hypercholesterolaemia; human, idiopathic pulmonary fibrosis; 60 mg once daily, grade 2: “patients with adverse event” read 0%.
Phase 2a trial, item: blood fibrinogen increased; human, idiopathic pulmonary fibrosis; all compound arms total, grade 5 — “patients with adverse event”: 0%.
It gave 0% for “patients with adverse event” (Phase 2a trial, item: hypertriglyceridaemia; human, idiopathic pulmonary fibrosis; 60 mg once daily, grade 3).
Phase 2a trial, item: respiratory, thoracic, mediastinal disorders; human, idiopathic pulmonary fibrosis; 30 mg once daily, grade 2 — “patients with adverse event”: 0%.
Phase 2a trial, item: haemorrhoids; human, idiopathic pulmonary fibrosis; 30 mg once daily, grade 4 — “patients with adverse event”: 0%.
It gave 0% for “patients with adverse event” (Phase 2a trial, item: blood creatinine increased; human, idiopathic pulmonary fibrosis; 60 mg once daily, grade 4).
The “patients with adverse event” was 0% (Phase 2a trial, item: hypoalbuminaemia; human, idiopathic pulmonary fibrosis; 30 mg once daily, grade 1).

Set 6 — observed: kinase activity
Structure (SMILES): COc1cc(C(=O)N2CCC(N3CCN(C)CC3)CC2)ccc1Nc1ncc2c(n1)N(C)c1ccccc1C(=O)N2C
It gave 91 ± 11% for remaining activity (EPH-A2; 10 µM).
It gave 86 ± 6% for remaining activity (MKK1; 10 µM).
For DAPK1; 10 µM: remaining activity read 77 ± 2%.
For GCK; 10 µM: remaining activity read 99 ± 4%.
The remaining activity was 107 ± 3% (PRAK; 10 µM).
The remaining activity was 71 ± 5% (SYK; 1 µM).
For BTK; 10 µM: remaining activity read 75 ± 1%.
For S6K1; 1 µM: remaining activity read 86 ± 2%.
For p38d MAPK; 1 µM: remaining activity read 102 ± 6%.
The remaining activity was 86 ± 1% (MAPKAP-K2; 1 µM).
